{"data": "Results gathered from unrelated publications", "note": "Each numbered part is a random draw from the data of one study; scales do not carry over between parts."}
{"data": "Sample 1", "organism": "Sarcocystis neurona", "observed": "parasite growth", "concentration": "10 µM", "time": "96 h", "notes": "second screen", "reference": "untreated"}
{"Structure (SMILES)": "CCC(C)n1ncn(-c2ccc(N3CCN(c4ccc(OCC5COC(Cn6cncn6)(c6ccc(Cl)cc6Cl)O5)cc4)CC3)cc2)c1=O (stereo not drawn)", "log2 fold change": 0.66}
{"Structure (SMILES)": "CN1CCC(=C2c3ccccc3CC(=O)c3sccc32)CC1", "log2 fold change": 0.51}
{"Structure (SMILES)": "Oc1ncnc2[nH]ncc12", "log2 fold change": 0.32}
{"Structure (SMILES)": "C/C=C1\\[C@H]2C=C(C)C[C@]1(N)c1ccc(=O)[nH]c1C2", "log2 fold change": 0.41}
{"Structure (SMILES)": "CCOc1ccc2ccccc2c1C(=O)N[C@@H]1C(=O)N2[C@@H]1SC(C)(C)[C@@H]2C(=O)O", "log2 fold change": 0.29}
{"data": "Sample 2", "Structure (SMILES)": "O=C(Nc1cccnn1)N1CCC(=Cc2cccc(Oc3ccc(C(F)(F)F)cn3)c2)CC1", "observed": "cell-free assay", "technique": "competition with immobilised ligand", "concentration": "1 µM"}
{"target": "Tyrosine-protein kinase ABL1, phosphorylated (ABL1, Homo sapiens, UniProt P00519, M351T)", "remaining binding": "99%"}
{"target": "ERBB3 (Homo sapiens, UniProt P21860)", "remaining binding": "84%"}
{"target": "KIT (Homo sapiens, UniProt P10721, V559D/V654A)", "remaining binding": "100%"}
{"target": "HIPK2 (Homo sapiens, UniProt Q9H2X6)", "remaining binding": "100%"}
{"target": "MAP3K11 (Homo sapiens, UniProt Q16584)", "remaining binding": "74%"}
{"data": "Sample 3", "target": "Aurora kinase C (AURKC, Homo sapiens, UniProt Q9UQB9)", "observed": "enzyme activity", "action": "inhibitor", "concentration": "0.5 µM", "reference": "control", "Target sequence (Q9UQB9 1-309)": "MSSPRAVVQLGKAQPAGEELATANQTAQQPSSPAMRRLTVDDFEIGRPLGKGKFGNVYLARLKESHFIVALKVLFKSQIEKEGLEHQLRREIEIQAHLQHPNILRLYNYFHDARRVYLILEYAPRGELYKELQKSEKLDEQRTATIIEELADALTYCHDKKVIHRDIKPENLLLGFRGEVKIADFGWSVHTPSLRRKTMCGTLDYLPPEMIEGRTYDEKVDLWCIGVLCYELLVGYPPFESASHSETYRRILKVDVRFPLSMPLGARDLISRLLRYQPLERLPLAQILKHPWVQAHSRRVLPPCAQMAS"}
{"Structure (SMILES)": "Cc1ccc(Nc2nccc(N(C)c3ccc4c(C)n(C)nc4c3)n2)cc1S(N)(=O)=O", "remaining activity [%]": 70.9}
{"Structure (SMILES)": "Cn1sc(=O)n(Cc2ccccc2)c1=O", "remaining activity [%]": 98.8}
{"Structure (SMILES)": "Cc1ccc(NC(=O)c2ccc(CN3CCN(C)CC3)cc2)cc1Nc1nc(-c2cccnc2)cs1", "remaining activity [%]": 112}
{"Structure (SMILES)": "O=C(O)c1ccc2c3c1cccc3c(=O)n1c3ccccc3nc21", "remaining activity [%]": 88}
{"Structure (SMILES)": "O=C1NC(=O)C(c2cn(CCCO)c3ncccc23)=C1c1cnccn1", "remaining activity [%]": 113}
{"Structure (SMILES)": "Nc1ccc2ncnc(NCCc3ccc(Oc4ccccc4)cc3)c2c1", "remaining activity [%]": 96}
{"Structure (SMILES)": "N#CC(C#N)=C(N)/C(C#N)=C/c1ccc(O)cc1", "remaining activity [%]": 101}
{"Structure (SMILES)": "Nc1[nH]nc2nc3ccccc3nc12", "remaining activity [%]": 90.8}
{"Structure (SMILES)": "COc1cc2ncnc(Nc3ccc(Oc4ccccc4)cc3)c2cc1OC", "remaining activity [%]": 93.9}
{"Structure (SMILES)": "Cc1cccc(-c2[nH]c(C(C)(C)C)nc2-c2ccc3c(c2)OCO3)n1", "remaining activity [%]": 91.4}
{"Structure (SMILES)": "CN(C)c1ccc(C=C2C(=O)Nc3ccccc32)cc1", "remaining activity [%]": 91.1}
{"Structure (SMILES)": "Cc1nc(-c2ccccc2)c(-c2ccncc2)o1", "remaining activity [%]": 95.7}
{"Structure (SMILES)": "COc1cc2nccc(Oc3ccc(NC(=S)NC(=O)c4ccccc4C)cc3)c2cc1OC", "remaining activity [%]": 30.2}
{"Structure (SMILES)": "Oc1ccc(-c2nc(-c3ccncc3)c(-c3ccc(F)cc3)[nH]2)cc1", "remaining activity [%]": 94.2}
{"Structure (SMILES)": "CO[C@H]1C[C@@H]2CC[C@@H](C)[C@@](O)(O2)C(=O)C(=O)N2CCCC[C@H]2C(=O)O[C@H]([C@H](C)C[C@@H]2CC[C@@H](O)[C@H](OC)C2)CC(=O)[C@H](C)/C=C(\\C)[C@@H](O)[C@@H](OC)C(=O)[C@H](C)C[C@H](C)/C=C/C=C/C=C/1C", "remaining activity [%]": 95.6}
{"data": "Sample 4", "Structure (SMILES)": "CC(=O)N[C@@H](Cc1c[nH]c2ccccc12)C(=O)N[C@@H](CCC(=O)C=[N+]=[N-])C(=O)OC(C)C", "host": "mouse, EL4 tumour-bearing", "sample": "EL4 tumour", "dose": "dose not given", "reference": "vehicle"}
{"refers to": "pseudouridine", "log2 fold change": -0.906}
{"refers to": "2-aminophenol sulfate", "log2 fold change": 0.92}
{"refers to": "1-methylhistidine", "log2 fold change": -1.17}
{"refers to": "ribitol", "log2 fold change": -0.255}
{"refers to": "N6-carboxymethyllysine", "log2 fold change": 0.297}
{"note": "Some of these lines once more (sample 1):"}
{"Structure (SMILES)": "Oc1ncnc2[nH]ncc12", "log2 fold change": 0.32}
{"Structure (SMILES)": "CCOc1ccc2ccccc2c1C(=O)N[C@@H]1C(=O)N2[C@@H]1SC(C)(C)[C@@H]2C(=O)O", "log2 fold change": 0.29}
